Published values pooled from the literature.
Every numbered part comes from another study and shows a few of its results, in no order.

Series 1
Target: Centromere-binding protein 1, full length, His-tagged (CBF1, Saccharomyces cerevisiae, UniProt P17106, residues 1-351)
Sequence of UniProt P17106 (whole entry, looked up): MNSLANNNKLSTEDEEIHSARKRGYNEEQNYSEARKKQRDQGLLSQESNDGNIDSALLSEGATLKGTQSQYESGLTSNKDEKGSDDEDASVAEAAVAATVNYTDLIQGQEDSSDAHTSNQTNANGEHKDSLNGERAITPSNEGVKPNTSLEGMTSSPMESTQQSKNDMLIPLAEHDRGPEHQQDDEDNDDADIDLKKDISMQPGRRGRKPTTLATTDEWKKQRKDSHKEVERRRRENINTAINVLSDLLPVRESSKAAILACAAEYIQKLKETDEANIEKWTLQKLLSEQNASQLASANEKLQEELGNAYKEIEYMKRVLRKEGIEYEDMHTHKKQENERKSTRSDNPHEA
Technique: competition protein-binding microarray
Form: double-stranded DNA, one strand shown
Medium: in vitro
Concentration: 2 µM
Setting: whole 60-bp probe, lowest competitor level
Added: Pho4 competitor, 0.05 µM
Direction: higher = stronger binding
Endpoint: fluorescence intensity
Constant ends, left off below: … GTCTTGATTCGCTTGACGCTGCTG
TGGTCTTGGCCTTGACCGGTGATACGCGTCTTGTGC: 54.9 a.u.
TCACCAGCCATTTTTGACATGACAGCTGGACCATTA: 65.6 a.u.
GATATCGTTCAAATGCTCGTGCTTTAACCTTAATAC: 123 a.u.
ACCGGTGCAACTTTCCACATGCACTCTCATTGAGAC: 94.3 a.u.
CCCACATATATACCGATGTTGATAAACACCATTAAA: 69.8 a.u.
AAATTACTAAGTTGTCACATGACTTACCCCGTATGA: 3200 a.u.
CATACCCAACCTTGCTGTGTGGGTGAAGATATTTGT: 64.5 a.u.
CGTCCTAGTGATTGTGACGTGGGTGCCATGAGGAAG: 80.6 a.u.
AAAGCGGTAATTTGTCACCGGACTTCACATATCTAT: 104 a.u.
GACATACAGGAGTGCCACATGCGAAAGCGGAGTGGG: 90.3 a.u.
CGGGGTTAAGTTTGTCAGGTGGGTGGCTTGCAGCAG: 123 a.u.
AAAGCGGTAATTTGACTTGTGGGTGCAGATATCTAT: 89.8 a.u.
CGTCCTAGTGATTGCTGCGTGGGTGCCATGAGGAAG: 84.1 a.u.
CCGCCAAGAGAAATGCTCGTGACTCGTTGGCTCAAT: 421 a.u.
TATGCGCGGATGTGGCACATGCTGTTGAGATCTCAA: 138 a.u.
GGGTAAGGTCTTTTTCGCGTGCTTTTATTTTATTCA: 103 a.u.
ATCGTAAATAAAACACACGTGCTTTCCCTACCACTT: 1970 a.u.
GACTTACATCTCTGGCACGTGGTGAAGTACGAGCCC: 1620 a.u.
CTTTCCCGATCTTGTTGTGTGGGTGTAGCACATTTG: 91 a.u.
TGCAGCATCCAGCTTCCCGTGTATCCATACCACCCT: 91.8 a.u.
CATACCCAACCTTGTTGTGTGGGTGAAGATATTTGT: 76.6 a.u.

Series 2
Target: Interferon regulatory factor 5, full length, phosphomimetic (IRF5, Homo sapiens, UniProt Q13568-2, residues 1-514, K96S/S451D/S453D/S456D/S462D)
Technique: protein-binding microarray
Form: double-stranded DNA, one strand shown
Medium: in vitro
Concentration: 250 nM
Setting: 60-bp whole probe
Added: salmon DNA 0.4 mg/ml
Reference: random background probes
Direction: higher = stronger binding
Endpoint: log fluorescence
Constant ends, left off below: GCCTAGCAC … GTCTTGATTCGCTTGACGCTGCTG
TTAGGTATCGGACTGGATTAGTGCTAG: 1.54 z-score
GACGGACTAGACTTTCGGGACGTGCTA: 4.17 z-score
TTTTTTTTTTTTGTATTTTTGTGCTAG: 1.89 z-score
CCCTGGCTCCCTATAAAAGGGTGCTAG: -0.522 z-score
GACGGTTCCGGTTTCGCGACGTGCTAG: 1.73 z-score
TTAGGTTTCGATTTTCGGTTAGTGCTA: 9.87 z-score
TTAGGTATCGTGTTTCGGTTAGTGCTA: 8.28 z-score
TTAGATCTCAGTCTCGAATAGTGCTAG: 0.373 z-score
ATTTTTTTCTAATTGAAATCGTGCTAG: 1.4 z-score
GACTATTTCAGTTTCGAGACGTGCTAG: 7.1 z-score
TTAGGACTGGGTTTGGGTTAGTGCTAG: -0.481 z-score
TTAGGTTTCGACTTTCGGTTGGTGCTA: 10.4 z-score
GACGGTATCAGTTTCGAGACGTGCTAG: 6.57 z-score
GACGATCTTAGTTTCGAGACGTGCTAG: 5.6 z-score
TTAAGTCTCGGTCTCGGTTAGTGCTAG: 1.7 z-score
GACGGTATCGGTATCGGGACGTGCTAG: 6.44 z-score
TCAGTTTTTGCTTTCTTACTGTGCTAG: 2.15 z-score
GACGCTCTCCTTCTCCTGACGTGCTAG: -0.108 z-score
TTAGGACTGCCTTTCCTTTAGTGCTAG: -0.0374 z-score
GTTTCTCTTTCCTTCTTGATGTGCTAG: 5.3 z-score
CTTCCCCTCTCATTCCAATTGTGCTAG: 0.299 z-score
TTAGCTTCCAGTTTCGATTAGTGCTAG: 9.91 z-score
TGTGTTTTCACTTTTCCTACGTGCTAG: 4.47 z-score

Series 3
Target: Fragile X messenger ribonucleoprotein 1, C-terminal low-complexity region (Fmr1, Mus musculus, UniProt P35922)
Technique: RNA Bind-n-Seq
Form: RNA
Medium: in vitro
Concentration: 200 nM
Setting: whole 134-nt RNA, ends assumed
Added: 150 mM KCl
Reference: input library
Direction: higher = stronger binding
Endpoint: log2 enrichment
Constant ends, left off below: GGGAGUUCUACAGUCCGACGAUC … UGGAAUUCUCGGGUGUCAAGG
AGUCCUGUGCUACACAUCGUAUGUACCGAAUCGGGUUUUGGGGUUUUGGGUUUUGGGGAAAGUAUUAUGUUACGCCGUUCGGAUCUGCAC: 0.661
CCUGUGCUACACAUCGUAUGUACCGAAUCGGGGUUUUUUUGGGGAAAGGGGUUUUUGGGGAAAGUAUUAUGUUACGCCGUUCGGAUCUGC: 0.304
UCAAGUCCUGUGCUACACAUCGUAUGUACCGAAUCGGGCCGGGCCGGGCCGGGGAAAGUAUUAUGUUACGCCGUUCGGAUCUGCACUUCC: 0.174
UCCUAGUCCUAGGAAAACUCCAGUUGCCAGUGAUCAACGCCGUAGGUCCUGCAAAACAGCCCCUGCUUCCAGCAGCAAAUCUCAGACAGA: 0.0483
AUGGACUUGCACAUGAUGAACUGUGAACUUCUAGCCACAUGUAGUGCCCUUGGGUACUUGGAGGGAGACACUUACCAUAAGGAACCAGAU: -0.925
CAAGUCCUGUGCUACACAUCGUAUGUACCGAAUCGGAAAGGUUUUUGGUUUUUGGAAAGUAUUAUGUUACGCCGUUCGGAUCUGCACUUC: -0.951
GCAGGAAGUAAAAACAAAUGGAAAUGCUUCGGAUAGUGGCAGGGGUGGAAAUUGCUAAGGAAAGGGUGGGAUGGGAGUGGGUAAAGAGUU: 0.346
CCUCAAGUCCUGUGCUACACAUCGUAUGUACCGAAUCGGUGGGGUGGGGUGGAAAGUAUUAUGUUACGCCGUUCGGAUCUGCACUUCCAG: 0.427
GUCCUGUGCUACACAUCGUAUGUACCGAAUCGGGGAGGGGAAAGGGGUUUUUUUGGGGAAAGUAUUAUGUUACGCCGUUCGGAUCUGCAC: 0.562
CAAGUCCUGUGCUACACAUCGUAUGUACCGAAUCGGGGAAAGGGGAAAGGAAAGGGAAAGUAUUAUGUUACGCCGUUCGGAUCUGCACUU: 0.0509
CGCAGAAGUCGCGUGUCUAGGUGAGUCGCGGUGGGUCCUCGCUUGCAGUUCAGCGACCACGGUGGGUACCGUUUUUGCGAGGAUUGUUUG: -1.59
AAGUCCUGUGCUACACAUCGUAUGUACCGAAUCGGGGAAAGGGGUGGGGAAAGGGGAAAGUAUUAUGUUACGCCGUUCGGAUCUGCACUU: 0.617
ACCAUGCAGGUGGGCAUCUUUGGGAAGUGGGGCAAGGGGGGGAUAGGGAGAAAGGUAACACUUUGGGAACAGGUGGUCCCAGGUCGUUUC: 0.837
UCCUGUGCUACACAUCGUAUGUACCGAAUCAAACCCCCAAACCCCCCCAAAUUUUUAAAAAAGUAUUAUGUUACGCCGUUCGGAUCUGCA: 0.0387

Series 4
Target: RING finger protein unkempt homolog, zinc fingers 1-6, GST-SBP tag (UNK, Homo sapiens, UniProt Q9C0B0, residues 30-357)
Technique: RNA Bind-n-Seq
Form: RNA
Medium: in vitro
Concentration: not given
Setting: RNA with constant flanks, human and mouse sites, ends assumed
Reference: input RNA pool
Direction: higher = stronger binding
Endpoint: bound/input enrichment
Constant ends, left off below: GGGAGUUCUACAGUCCGACGAUC … CAACAGAGGAUUGAGCAUCA
Residues (chain): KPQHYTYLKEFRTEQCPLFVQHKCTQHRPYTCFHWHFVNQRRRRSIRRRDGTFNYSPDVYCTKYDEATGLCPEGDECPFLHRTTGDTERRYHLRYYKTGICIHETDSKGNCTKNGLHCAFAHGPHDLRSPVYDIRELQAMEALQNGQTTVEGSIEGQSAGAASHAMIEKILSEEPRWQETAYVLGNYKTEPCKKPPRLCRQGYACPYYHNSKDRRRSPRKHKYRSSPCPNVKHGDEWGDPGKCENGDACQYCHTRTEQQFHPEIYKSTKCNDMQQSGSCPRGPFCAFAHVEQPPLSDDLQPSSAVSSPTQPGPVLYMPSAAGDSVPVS
GAAAGAUUUCUCGAAUGCUGGCAGCCAAAACUGUUCUGGCUAUCAGAUACGACGCUUUUGGUGAAGAUUCCAGUUCUGCAAUGGGAAUUGAGAACAGAGCCAAAUUAGAGGCCAGGUUGA: 0.196 ratio
UGCGUUUUGUGUAGAGAAUAAGGAACGUGGAUCUUUUUAUUUUGCAAUCCUGGGCCAGCUAGAUACCGGGAGCUAAUUGACCUUUUAACCUUUUCAGUGGCCACCUUUUGGUUAUCAAUG: 0.331 ratio
UGUGCAUUUUUUCUGGGGCCAUUGUUUUUGGUUUAUUUUGUUAUUUUGUUUUGUUUUUGUUUUUUUGGUUUCAUUUUGUUUUGGGUUGGUCCAAUUUUAAAAGGAAAUACUACAAUAAAA: 0.999 ratio
AAACUCUCUAGCAAAACCACUGCUAAGUUAUCCACUAGUGCUAAAAGAAUUCAGAAGGAGCUAGCUGAAAUAACCCUUGAUCCUCCUCCUAAUUGCAGUGCUGGGCCUAAAGGAGAUAAC: 0.594 ratio
UGAAUACACAGUACAUCAUACAUCCUUUACAAGCAAGUUCAAUGGAGAUUACGUUGAAAUCAUAGAAGAUGCAAAUGACCUUUCAAAGUCAACACAAUGUGUUCUGAAACCUCGUGACUA: 0.262 ratio
AGUGAAGUUCAGGCAAACCUUUCUCUGUUCCUAGAGGCAGCUAGUGGCUUCUAUACUCAGUUAUUACAAGAACUGUGUACAGUAUUUAAUGUAGAUUUACCAUGCCGUGUGAAGUCUUCC: 0.817 ratio
UAGAUGUUCUGUCUCUAUGACAAUAUAUUUUAACUGACUUUCUAGAUGCCUUAAUAUUUGCAUGAUAAGCUAGUUUUCUUGGUUAGUAUUCUUGUUGUUUACGCAUGGAGUCACUAUUCC: 0.554 ratio
UCCGCGCUUCUUAGAAGAGGAGUGAGAGGAAGGCGGGGGGCGCAGCAACGCAUCGUGUGGCCCUCCCCUCCCACCUCCCUGUGUAUAAAUAUUUACAUGUGAUGUCUGGUCUGAAUGCAC: 0.0879 ratio
UAGAGAUGAUAUCAAUUAUUACCUAUUGUUGCACUGACUUAUACGUAGAUCAAUAGGAGAUUUAGAUGCCCUUAUGCUGUGAGUUUGAUGUGAUUUCAUUAGCUGCAUGGUGCUUUCUGA: 1.37 ratio
AUGGAUGACAAGGCUUCUGUUGGAAAAAUCAGUGUCUCUUCAGACUCAGUAUCUACUCUUAAUAGUGAAGAUUUUGUCUUGGUUUCCAGGCAAGGAGAUGAGACACCAUCUACAAAUAAU: 0.271 ratio
CGCUGAUGUGAACCUUUUUAUAGAUUGUAGUAACCUGCAGAAAGAAGUAGGUUUUUAUUUUUAGGAAGUUAUGUACCAUAAUUUUAAACUUAAGUUUCUCUAAUAUUACUAACUAUAAAA: 1.26 ratio

Series 5
Target: Histone acetyltransferase KAT6A, winged helix 2, GST fusion (KAT6A, Homo sapiens, UniProt Q92794, residues 85-181)
Technique: protein binding microarray
Form: double-stranded DNA, one strand shown
Medium: in vitro
Concentration: not given
Setting: 8-mer, flanks averaged, mean of 2 arrays, mostly near background
Reference: not given
Direction: higher = stronger binding
Endpoint: E-score
Target sequence (chain): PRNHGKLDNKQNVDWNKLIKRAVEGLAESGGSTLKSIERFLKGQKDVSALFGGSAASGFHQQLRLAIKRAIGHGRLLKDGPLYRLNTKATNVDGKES
CCGTTGAA: -0.115
GTAATCAC: -0.124
AACCCTAG: 0.00556
CCGGCGAC: -0.0296
AAGTGACA: 0.0814
CTTTGTCA: 0.0757
GGGACATA: -0.0848
CCTATTCA: -0.168
CCTAATAG: -0.0874
CAGCCCGA: 0.0615
AAATCGCA: 0.128
TACAATCA: -0.121
AAGCGAAT: 0.112
AGCATCTA: -0.0537
AGACACAC: -0.0721
ACAGTTAT: -0.111

For quick reference, copied from above (series 2):
CCCTGGCTCCCTATAAAAGGGTGCTAG: -0.522 z-score
GACGGTTCCGGTTTCGCGACGTGCTAG: 1.73 z-score
TTAGGTTTCGATTTTCGGTTAGTGCTA: 9.87 z-score
TTAGGTATCGTGTTTCGGTTAGTGCTA: 8.28 z-score
TTAGATCTCAGTCTCGAATAGTGCTAG: 0.373 z-score
ATTTTTTTCTAATTGAAATCGTGCTAG: 1.4 z-score
GACTATTTCAGTTTCGAGACGTGCTAG: 7.1 z-score
TTAGGACTGGGTTTGGGTTAGTGCTAG: -0.481 z-score
TTAGGTTTCGACTTTCGGTTGGTGCTA: 10.4 z-score
